Published values of several laboratories.
Protocols differ between the studies behind these lines.
Organism: Staphylococcus aureus

SMILES | effect on | technique | strain | time | temperature | notes | MIC
CN(C)c1cc(CNC(=O)OCC(C)(C)C)c(O)c2c1C[C@H]1C[C@H]3[C@H](N(C)C)C(O)=C(C(N)=O)C(=O)[C@@]3(O)C(O)=C1C2=O | – | – | RN4250, Tet K efflux | – | – | – | 2 µg/mL
CCN(CC)CCCN1/C(=C/c2cc(C)[n+](C)c3ccccc23)Sc2ccccc21 | microbial growth | broth dilution | ATCC29213 | – | – | – | 2 µg/mL
Nn1c(CCCC2CCCCC2)nc2ccccc2c1=O | – | broth microdilution | RN6390B | – | – | – | > 100 µM
CCc1nc(N)nc(N)c1C#CC(C)c1cccc(-c2cc(C)nc(C)c2)c1 (racemic) | – | broth microdilution | ATCC 43300 | 18 h | 37 °C | – | 0.156 µg/mL
COc1c(CC=C(C)C)c(O)cc2c1[C@@H]1Oc3c(ccc(O)c3CC=C(C)C)[C@@H]1CO2 | – | – | ATCC 25923 | – | – | – | 64 µg/mL
CN(C)c1cc(CN2CCCC2)c(O)c2c1C[C@H]1C[C@H]3[C@H](N(C)C)C(O)=C(C(N)=O)C(=O)[C@@]3(O)C(O)=C1C2=O | – | – | MRSA 5, Tet M ribosome protection | – | – | – | 2 µg/mL
CC(C)C[C@H](NC(=O)[C@H](CC(N)=O)NC(=O)[C@H](CCCNC(=N)N)NC(=O)[C@@H](CC(C)C)NC(=O)[C@H](Cc1ccc(-c2ccccc2)cc1)NC(=O)[C@H](CC(=O)O)NC(=O)[C@H](CCCCN)NC(=O)[C@@H](CC(C)C)NC(=O)[C@H](CCCNC(=N)N)NC(=O)[C@H](CCC(N)=O)NC(=O)[C@@H](NC(=O)[C@@H](CC(C)C)NC(=O)[C@H](CCCNC(=N)N)NC(=O)[C@H](CCCCN)NC(=O)[C@H](Cc1ccc(-c2ccccc2)cc1)NC(=O)CN)C(C)C)C(=O)N[C@H](C(N)=O)C(C)C | – | – | USA300 LAC | overnight | – | trypsin pretreated | 8 µM
CC(C)c1ccc2c(c1)CCC1C(C)(CN(CC(O)C[N+](C)(C)C)CC(O)C[N+](C)(C)C)CCCC21C (stereo not drawn) | microbial growth | broth dilution | ATCC29213 | 16 h | – | – | 31.3 µg/mL
C/C(=N\Nc1nc(-c2ccccc2)cs1)c1ccc2c(c1)sc1nc(=O)c(C#N)cn12 | microbial growth | broth dilution | – | – | – | – | < 50 µg/mL
CO[C@H]1[C@H](O)[C@@H](N)[C@@H](O[C@H]2[C@H](O[C@@H]3O[C@H](CO)[C@@H](O[C@H]4O[C@@H](CN)[C@@H](O)[C@H](O)[C@H]4N)[C@H]3O)[C@@H](O)[C@H](N)C[C@@H]2N)O[C@@H]1CO | – | broth microdilution | MRSA isolate AG 039 | – | – | – | 32 µg/mL
CNC(CC(C)C)C(=O)NC1C(=O)NC(CC(N)=O)C(=O)NC2C(=O)NC3C(=O)NC(C(=O)NC(C(=O)O)c4cc(O)cc(O)c4-c4cc3ccc4O)C(O)c3ccc(c(Cl)c3)Oc3cc2cc(c3OC2OC(CO)C(O)C(O)C2OC2CC(C)(NC(=O)CCCCCC[N+]3(C)CCOCC3)C(O)C(C)O2)Oc2ccc(cc2Cl)C1O (stereo not drawn) | – | agar dilution | MRSA clinical isolate MRSA4 | – | – | – | 32 µg/mL
Cn1c(C23CC4CC(CC(C4)C2)C3)nn(CCN2CCCCC2)c1=S | – | two-fold dilution | IFO 3060 | 24 h | 36 °C | – | 1 µg/mL
C[C@H]1COc2c(N3CCN(C)CC3)c(F)cc3c(=O)c(C(=O)N[C@@H](CCCNC(=N)N)C(=O)N[C@@H](Cc4ccc(-c5ccccc5)cc4)C(=O)N[C@@H](CCCNC(=N)N)C(=O)N[C@@H](Cc4ccc(-c5ccccc5)cc4)C(=O)N[C@@H](CCCNC(=N)N)C(N)=O)cn1c23 | – | broth microdilution | ATCC BAA-44 | – | – | – | 20 µM
CN(C)c1cc(CN2CCCCC2)c(O)c2c1C[C@H]1C[C@H]3[C@H](N(C)C)C(O)=C(C(N)=O)C(=O)[C@@]3(O)C(O)=C1C2=O | – | – | RN4250, Tet K efflux | – | – | – | 0.25 µg/mL
CC[P+](CC)(CC)[Au-][S]c1ccc(OC)cc1 | – | broth microdilution | JE2 (USA300) | – | – | – | 0.02 µM

A few entries again:
SMILES | effect on | technique | strain | time | temperature | notes | MIC
CNC(CC(C)C)C(=O)NC1C(=O)NC(CC(N)=O)C(=O)NC2C(=O)NC3C(=O)NC(C(=O)NC(C(=O)O)c4cc(O)cc(O)c4-c4cc3ccc4O)C(O)c3ccc(c(Cl)c3)Oc3cc2cc(c3OC2OC(CO)C(O)C(O)C2OC2CC(C)(NC(=O)CCCCCC[N+]3(C)CCOCC3)C(O)C(C)O2)Oc2ccc(cc2Cl)C1O (stereo not drawn) | – | agar dilution | MRSA clinical isolate MRSA4 | – | – | – | 32 µg/mL
CO[C@H]1[C@H](O)[C@@H](N)[C@@H](O[C@H]2[C@H](O[C@@H]3O[C@H](CO)[C@@H](O[C@H]4O[C@@H](CN)[C@@H](O)[C@H](O)[C@H]4N)[C@H]3O)[C@@H](O)[C@H](N)C[C@@H]2N)O[C@@H]1CO | – | broth microdilution | MRSA isolate AG 039 | – | – | – | 32 µg/mL
